Experimental data from different studies.
Lines come from different studies, so protocols differ. Numbers after ± are the reported error.
Cell line: human PBMC

Structure (SMILES)	test	conditions	endpoint	value
O=C(N=P12CN3CN(CN(C3)C1)C2)c1cccc[c]1[Pd].O=C(N=P12CN3CN(CN(C3)C1)C2)c1cccc[c]1[Pd]([Br])[Br]	cytotoxicity, MTT	24 h, 1% DMSO	IC50	209 ± 11 µM
CN1CCC(N[C@@H]2CCc3[nH]c4c(C(N)=O)ccc(-c5ccccc5Cl)c4c3C2)CC1	cell growth or viability		IC50	0.00299 µM
CCOC(=O)C1NC(c2ccc[n+](C)c2)C23c4c5c6c7c8c9c(c%10c%11c2c2c4c4c%12c5c5c6c6c8c8c%13c9c9c%10c%10c%11c%11c2c2c4c4c%12c%12c5c5c6c8c6c8c%13c9c9c%10c%10c%11c2c2c4c4c%12c5c6c5c8c9c%10c2c45)C713 (stereo not shown)		5 µM, 24 h	decrease in viability	6.4%
Cc1[nH]nc2c1N=C(c1ccccc1Cl)c1cnc(N3CCOCC3)cc1N2		concentration not given, 3 d, together with: rhM-CSF 100 ng/mL	macrophage differentiation	inhibited
CC(C)(C(=O)O)C1(O)CCCCC1	cell growth or viability	72 h	IC50	> 300 µM
CCN(CC)CCN1C(=O)c2ccc3c4cccc5cccc(c6ccc(c2c36)C1=O)c54	cell growth or viability, SRB	72 h	IC50	204 µM
c1ccc(-c2ccc(CNCCNCc3ccc(-c4ccccn4)cc3)cc2)nc1	IL-1β release, inhibitor, ELISA	16 h, LPS-stimulated	IC50	0.9 µg/mL
CC(=O)C=C(C)[O][Pd][c]1ccccc1C(=O)N=P12CN3CN(CN(C3)C1)C2	cytotoxicity, MTT	24 h, 1% DMSO	IC50	118 ± 11 µM
O=C1c2ccc3c4cccc5c(N6CCNCC6)ccc(c6ccc(c2c36)C(=O)N1CCN1CCCCC1)c54	cell growth or viability, SRB	72 h	IC50	292 µM
C=CC(=O)Nc1cccc(Cn2ncc3cnc(Nc4cnn(CCOC)c4)nc32)c1	Western blot	concentration not given, together with: IL-2	STAT5 phosphorylation	inhibited
O=C(O)C(CO)NCc1cc(Cl)c(OCc2cccc(-c3ccccc3)c2Br)cc1OCc1cccnc1 (stereo not shown)	IFN-γ release, PD-1/PD-L1 blocker, ELISA	together with: PHA + human PD-L1 protein	EC50	≥ 0.01 µM
CCCCOc1nc(N)c2[nH]c(=O)n(CCCN(CCCN3CCOCC3)Cc3cccc(CC(=O)O)c3)c2n1	IL-5 release	7 d, together with: Der p 1	IC50	1.58 µM
CCN(CC)CCN1C(=O)c2ccc3c4cccc5c(N6CCNCC6)ccc(c6ccc(c2c36)C1=O)c54	cell growth or viability, SRB	72 h	IC50	213 µM

Repeated from above:
Structure (SMILES)	test	conditions	endpoint	value
C=CC(=O)Nc1cccc(Cn2ncc3cnc(Nc4cnn(CCOC)c4)nc32)c1	Western blot	concentration not given, together with: IL-2	STAT5 phosphorylation	inhibited
